Experimental data pooled from the literature.
Parts stem from different laboratories: compare values within a part only. Positions count from the first letter of the parent shown.

Sample 1 — target: CCND1, cyclin fold, Cln2 fusion (human); technique: yeast growth competition, sequencing; medium: yeast; setting: weak parent motif; baseline: not given; reading: higher = stronger binding; starting sequence: viral docking peptide; KKAKRRLFTISDS
Variant | normalised enrichment score
D12A | 0.0746
R5A L7A | -0.294
K2A | 0.373
R5K F8L | 0.153
R5A | 0.269

Sample 2 — target: CRIPT, C-terminal peptide; technique: DHFR complementation, deep sequencing; medium: yeast; baseline: wild type; reading: higher = weaker binding
Setting: single substitutions, model-inferred values
Starting sequence: ERBIN, PDZ domain 1 (human); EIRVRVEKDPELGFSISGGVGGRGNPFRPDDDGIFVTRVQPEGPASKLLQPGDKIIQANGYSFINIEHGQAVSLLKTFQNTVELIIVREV; partner TKNYKQTSV
Variant | binding free energy change [kcal/mol]
D30A | 0.164
I86W | 0.768
G33Y | 1.49
I2T | 0.164
S46I | 0.145
L84S | 1.4
G18T | 1.63
P26F | 0.554

Sample 3 — technique: Spec-seq; form: double-stranded DNA, one strand shown; medium: in vitro; concentration: not given; setting: whole probe, mean of replicates; baseline: not given; reading: lower = stronger binding; all sequences stand within: GAGTCGTCTCGTCAGCAC … CCGTAGAGCACTCAGGTC
Target: POU domain, class 5, transcription factor 1, POU domain (Pou5f1, Mus musculus, UniProt P20263, residues 131-289)
UniProt P20263, sequence (131-289, looked up): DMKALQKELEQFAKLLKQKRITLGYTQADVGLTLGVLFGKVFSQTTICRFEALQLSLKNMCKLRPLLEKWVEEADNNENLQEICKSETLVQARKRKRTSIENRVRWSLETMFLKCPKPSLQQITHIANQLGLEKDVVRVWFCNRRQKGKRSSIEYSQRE
Sequence | relative binding energy
ATGCGGAA | 0.37 ln ratio
ATTTCGAT | 0.461 ln ratio
ATGCCGTG | 0.852 ln ratio
TTTATAAT | 0.168 ln ratio
ATCCAAAT | 0.361 ln ratio
ATAAAAAT | -0.0231 ln ratio
CACGTAAT | 0.813 ln ratio
GAACTAAT | 0.464 ln ratio

Sample 4 — target: inorganic phosphate, free oxyanion; technique: microfluidic competitive inhibition; medium: in vitro, cell-free expressed; concentration: not given; reading: lower = stronger binding
Setting: derived from inhibition constants, unchanged parent 615000 nM
Starting sequence: PafA, mature enzyme, eGFP fusion (Elizabethkingia meningoseptica, UniProt Q9KJX5); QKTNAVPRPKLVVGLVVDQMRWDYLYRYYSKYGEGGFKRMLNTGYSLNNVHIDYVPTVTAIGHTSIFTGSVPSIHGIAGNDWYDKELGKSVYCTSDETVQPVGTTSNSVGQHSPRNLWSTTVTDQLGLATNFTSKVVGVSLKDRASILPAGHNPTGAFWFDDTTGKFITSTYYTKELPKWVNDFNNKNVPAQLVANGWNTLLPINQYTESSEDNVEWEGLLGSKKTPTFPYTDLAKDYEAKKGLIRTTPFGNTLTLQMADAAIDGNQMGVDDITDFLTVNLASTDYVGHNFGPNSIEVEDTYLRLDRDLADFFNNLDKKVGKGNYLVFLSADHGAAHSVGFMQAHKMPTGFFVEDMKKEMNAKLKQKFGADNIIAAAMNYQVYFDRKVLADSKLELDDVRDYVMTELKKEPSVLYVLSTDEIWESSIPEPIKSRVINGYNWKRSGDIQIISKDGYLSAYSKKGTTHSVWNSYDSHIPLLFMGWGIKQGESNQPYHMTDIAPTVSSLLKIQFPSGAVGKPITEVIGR
Variant | phosphate dissociation constant [µM]
K318G | 566
K187G | 590
D355V | 613
G110A | 632
N4G | 483
V403A | 634
N315G | 611
T64G | 826
T121G | 460
V109G | 593
G222A | 421
H289V | 960
I509V | 606
S444G | 446
T226V | 675
T464V | 558
T255V | 612
Y45V | 658

Sample 5 — effect on: ligand displacement; concentration: 10 µM
Target: Muscarinic acetylcholine receptor M3 (CHRM3, Homo sapiens, UniProt P20309)
UniProt P20309, sequence (whole entry, looked up): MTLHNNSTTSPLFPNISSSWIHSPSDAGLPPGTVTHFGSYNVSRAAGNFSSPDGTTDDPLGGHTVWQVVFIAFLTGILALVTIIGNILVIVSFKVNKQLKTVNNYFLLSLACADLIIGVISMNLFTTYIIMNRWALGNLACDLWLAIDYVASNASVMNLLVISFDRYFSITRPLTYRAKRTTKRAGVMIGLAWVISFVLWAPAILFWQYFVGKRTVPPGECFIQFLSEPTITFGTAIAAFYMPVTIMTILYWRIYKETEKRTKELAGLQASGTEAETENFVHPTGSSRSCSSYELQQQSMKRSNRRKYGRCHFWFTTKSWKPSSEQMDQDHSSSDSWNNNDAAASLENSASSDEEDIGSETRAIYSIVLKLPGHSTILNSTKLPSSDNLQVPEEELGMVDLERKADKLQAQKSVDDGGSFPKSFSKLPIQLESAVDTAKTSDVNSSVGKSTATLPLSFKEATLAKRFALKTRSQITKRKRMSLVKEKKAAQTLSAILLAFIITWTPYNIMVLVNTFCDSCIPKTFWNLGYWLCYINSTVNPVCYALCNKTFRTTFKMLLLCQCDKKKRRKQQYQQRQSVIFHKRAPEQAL
SMILES | inhibition
Cc1ccc(-c2cnc([C@@]3(O)CC[C@H](C(=O)O)C(C)(C)C3)s2)cc1Nc1cccc(C(F)(F)F)n1 | 6.69%
CCc1ccccc1C(=O)Nc1n[nH]c2c(C)c(F)c(C3C(C#N)=C(C)N(C)C(C)=C3C#N)cc12 | 22.5%
COCCOc1nc(-c2ccc(Cl)nc2)nc2c1CN(C(=O)c1ncn3ccccc13)CC2 | 3.95%

Some of these lines once more (sample 3):
Sequence | relative binding energy
CACGTAAT | 0.813 ln ratio
ATCCAAAT | 0.361 ln ratio
TTTATAAT | 0.168 ln ratio
ATGCCGTG | 0.852 ln ratio
